# Assay results collected from several papers.
# Lines come from different studies, so protocols differ.
# Sequence of UniProt P06493 (whole entry, looked up): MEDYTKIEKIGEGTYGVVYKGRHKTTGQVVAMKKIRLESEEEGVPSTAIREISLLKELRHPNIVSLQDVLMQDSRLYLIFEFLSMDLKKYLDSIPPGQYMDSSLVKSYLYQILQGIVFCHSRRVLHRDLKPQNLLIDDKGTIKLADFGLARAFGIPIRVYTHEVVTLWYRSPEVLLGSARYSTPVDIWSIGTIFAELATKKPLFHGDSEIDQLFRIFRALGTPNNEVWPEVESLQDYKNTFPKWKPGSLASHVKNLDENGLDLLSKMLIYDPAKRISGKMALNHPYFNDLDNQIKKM
# Sequence of UniProt Q9BVS4 (whole entry, looked up): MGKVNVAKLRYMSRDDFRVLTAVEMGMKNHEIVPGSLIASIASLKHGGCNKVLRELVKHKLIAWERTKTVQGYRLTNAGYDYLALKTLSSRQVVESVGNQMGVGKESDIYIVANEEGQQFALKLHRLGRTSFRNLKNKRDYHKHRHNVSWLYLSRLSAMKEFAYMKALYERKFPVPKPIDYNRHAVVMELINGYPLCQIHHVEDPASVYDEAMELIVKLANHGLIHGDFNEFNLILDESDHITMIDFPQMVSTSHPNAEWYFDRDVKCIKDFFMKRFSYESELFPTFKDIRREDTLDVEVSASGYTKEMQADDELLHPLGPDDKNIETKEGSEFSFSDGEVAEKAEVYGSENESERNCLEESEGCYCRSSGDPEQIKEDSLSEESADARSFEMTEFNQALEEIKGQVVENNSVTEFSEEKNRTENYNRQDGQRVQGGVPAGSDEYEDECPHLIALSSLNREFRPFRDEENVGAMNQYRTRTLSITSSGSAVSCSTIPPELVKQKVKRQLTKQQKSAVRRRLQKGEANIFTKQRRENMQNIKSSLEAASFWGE
# Sequence of UniProt P51813 (whole entry, looked up): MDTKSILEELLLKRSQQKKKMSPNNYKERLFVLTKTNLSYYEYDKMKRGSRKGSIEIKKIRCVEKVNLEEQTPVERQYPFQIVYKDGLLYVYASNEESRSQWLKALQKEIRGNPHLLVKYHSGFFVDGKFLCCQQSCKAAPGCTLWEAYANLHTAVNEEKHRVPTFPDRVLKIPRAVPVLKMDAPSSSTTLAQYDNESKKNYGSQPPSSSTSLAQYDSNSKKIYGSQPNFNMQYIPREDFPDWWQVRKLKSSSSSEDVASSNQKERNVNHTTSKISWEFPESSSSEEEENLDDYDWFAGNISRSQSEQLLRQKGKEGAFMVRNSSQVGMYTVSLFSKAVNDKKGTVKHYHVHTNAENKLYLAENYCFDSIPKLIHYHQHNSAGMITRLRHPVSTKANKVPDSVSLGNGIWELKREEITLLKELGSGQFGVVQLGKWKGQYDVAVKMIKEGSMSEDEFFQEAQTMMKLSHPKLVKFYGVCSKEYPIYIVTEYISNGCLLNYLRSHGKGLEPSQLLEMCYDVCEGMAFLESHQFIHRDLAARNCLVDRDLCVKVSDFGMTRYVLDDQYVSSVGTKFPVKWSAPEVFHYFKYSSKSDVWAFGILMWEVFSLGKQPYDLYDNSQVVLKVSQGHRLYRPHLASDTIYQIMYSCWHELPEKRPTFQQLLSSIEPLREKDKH
# Sequence of UniProt P49841 (whole entry, looked up): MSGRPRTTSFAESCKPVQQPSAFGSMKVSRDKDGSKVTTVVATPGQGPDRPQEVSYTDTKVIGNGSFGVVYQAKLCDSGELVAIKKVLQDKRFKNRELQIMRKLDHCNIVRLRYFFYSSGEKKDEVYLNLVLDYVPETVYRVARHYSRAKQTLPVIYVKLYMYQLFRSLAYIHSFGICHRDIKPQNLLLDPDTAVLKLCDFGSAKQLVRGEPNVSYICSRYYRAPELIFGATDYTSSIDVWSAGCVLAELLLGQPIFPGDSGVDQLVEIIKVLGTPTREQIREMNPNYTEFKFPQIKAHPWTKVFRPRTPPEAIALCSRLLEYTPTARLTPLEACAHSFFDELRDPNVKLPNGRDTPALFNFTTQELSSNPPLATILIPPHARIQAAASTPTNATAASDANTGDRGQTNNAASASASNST
# Sequence of UniProt Q15569 (whole entry, looked up): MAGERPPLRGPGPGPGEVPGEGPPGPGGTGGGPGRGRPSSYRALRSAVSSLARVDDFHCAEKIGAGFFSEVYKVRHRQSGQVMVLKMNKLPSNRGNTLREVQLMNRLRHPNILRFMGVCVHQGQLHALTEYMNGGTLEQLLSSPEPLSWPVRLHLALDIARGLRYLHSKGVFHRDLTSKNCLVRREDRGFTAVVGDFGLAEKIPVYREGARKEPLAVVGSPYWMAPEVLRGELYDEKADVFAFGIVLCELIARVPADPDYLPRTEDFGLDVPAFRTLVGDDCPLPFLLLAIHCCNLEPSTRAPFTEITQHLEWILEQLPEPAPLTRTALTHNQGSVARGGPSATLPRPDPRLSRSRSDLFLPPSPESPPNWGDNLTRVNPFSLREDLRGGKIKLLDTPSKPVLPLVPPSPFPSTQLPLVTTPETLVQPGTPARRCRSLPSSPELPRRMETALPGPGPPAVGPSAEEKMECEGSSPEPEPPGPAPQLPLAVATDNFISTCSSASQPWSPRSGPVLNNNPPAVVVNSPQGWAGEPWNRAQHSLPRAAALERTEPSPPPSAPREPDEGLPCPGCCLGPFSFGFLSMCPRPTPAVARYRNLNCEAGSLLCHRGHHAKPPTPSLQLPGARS
# Sequence of UniProt P04629 (whole entry, looked up): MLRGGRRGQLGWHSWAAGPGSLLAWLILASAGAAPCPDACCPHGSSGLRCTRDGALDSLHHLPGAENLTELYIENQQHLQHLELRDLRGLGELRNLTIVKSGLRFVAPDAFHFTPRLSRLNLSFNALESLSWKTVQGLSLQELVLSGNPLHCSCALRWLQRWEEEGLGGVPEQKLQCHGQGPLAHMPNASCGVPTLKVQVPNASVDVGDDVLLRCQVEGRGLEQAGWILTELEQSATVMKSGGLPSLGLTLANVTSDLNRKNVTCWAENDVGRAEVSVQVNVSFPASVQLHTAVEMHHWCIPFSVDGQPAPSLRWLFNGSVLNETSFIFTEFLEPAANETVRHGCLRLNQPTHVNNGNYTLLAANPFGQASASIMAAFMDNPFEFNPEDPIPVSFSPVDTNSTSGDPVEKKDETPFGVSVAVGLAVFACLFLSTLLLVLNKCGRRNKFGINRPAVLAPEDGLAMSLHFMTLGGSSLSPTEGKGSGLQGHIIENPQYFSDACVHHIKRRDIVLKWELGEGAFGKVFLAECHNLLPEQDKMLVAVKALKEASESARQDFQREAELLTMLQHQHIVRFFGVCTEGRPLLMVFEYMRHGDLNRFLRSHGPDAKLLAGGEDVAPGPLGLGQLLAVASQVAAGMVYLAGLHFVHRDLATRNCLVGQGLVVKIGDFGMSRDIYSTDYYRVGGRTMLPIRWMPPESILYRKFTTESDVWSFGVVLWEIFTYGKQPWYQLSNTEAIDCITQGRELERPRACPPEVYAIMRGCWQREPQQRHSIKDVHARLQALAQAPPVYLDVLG
# Sequence of UniProt Q92772 (whole entry, looked up): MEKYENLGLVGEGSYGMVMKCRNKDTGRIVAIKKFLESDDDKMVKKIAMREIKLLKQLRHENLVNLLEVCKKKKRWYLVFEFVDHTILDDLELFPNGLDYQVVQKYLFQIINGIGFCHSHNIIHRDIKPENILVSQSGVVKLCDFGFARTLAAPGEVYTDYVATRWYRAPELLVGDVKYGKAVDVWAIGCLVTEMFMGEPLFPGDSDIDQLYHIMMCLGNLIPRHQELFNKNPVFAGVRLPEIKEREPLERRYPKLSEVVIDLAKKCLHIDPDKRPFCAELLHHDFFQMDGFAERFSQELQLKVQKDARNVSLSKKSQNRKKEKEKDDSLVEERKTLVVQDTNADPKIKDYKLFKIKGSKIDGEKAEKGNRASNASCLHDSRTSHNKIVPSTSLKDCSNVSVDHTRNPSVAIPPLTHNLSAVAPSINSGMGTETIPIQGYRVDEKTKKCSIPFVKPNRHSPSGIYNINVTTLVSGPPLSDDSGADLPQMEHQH
# Sequence of UniProt P61075 (whole entry, looked up): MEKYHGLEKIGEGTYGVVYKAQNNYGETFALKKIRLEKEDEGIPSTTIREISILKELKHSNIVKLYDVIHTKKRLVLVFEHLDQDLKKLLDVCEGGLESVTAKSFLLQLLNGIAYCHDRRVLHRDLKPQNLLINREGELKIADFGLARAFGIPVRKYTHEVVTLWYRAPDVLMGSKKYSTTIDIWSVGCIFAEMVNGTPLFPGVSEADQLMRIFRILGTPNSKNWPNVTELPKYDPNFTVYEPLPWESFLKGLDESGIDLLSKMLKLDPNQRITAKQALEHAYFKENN
# Sequence of UniProt Q86UX6 (whole entry, looked up): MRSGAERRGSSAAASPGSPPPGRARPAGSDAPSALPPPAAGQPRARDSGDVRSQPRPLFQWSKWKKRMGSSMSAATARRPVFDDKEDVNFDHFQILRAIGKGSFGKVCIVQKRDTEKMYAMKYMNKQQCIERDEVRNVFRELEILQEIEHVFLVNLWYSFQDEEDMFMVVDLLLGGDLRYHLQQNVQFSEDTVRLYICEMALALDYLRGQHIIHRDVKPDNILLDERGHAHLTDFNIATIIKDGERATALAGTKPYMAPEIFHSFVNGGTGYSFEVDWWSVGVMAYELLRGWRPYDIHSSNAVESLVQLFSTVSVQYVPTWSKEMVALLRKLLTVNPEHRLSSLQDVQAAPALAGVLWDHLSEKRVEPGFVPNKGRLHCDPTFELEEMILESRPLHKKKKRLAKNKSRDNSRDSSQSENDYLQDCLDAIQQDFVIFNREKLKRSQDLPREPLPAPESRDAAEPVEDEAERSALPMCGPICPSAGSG
# Sequence of UniProt Q00534 (whole entry, looked up): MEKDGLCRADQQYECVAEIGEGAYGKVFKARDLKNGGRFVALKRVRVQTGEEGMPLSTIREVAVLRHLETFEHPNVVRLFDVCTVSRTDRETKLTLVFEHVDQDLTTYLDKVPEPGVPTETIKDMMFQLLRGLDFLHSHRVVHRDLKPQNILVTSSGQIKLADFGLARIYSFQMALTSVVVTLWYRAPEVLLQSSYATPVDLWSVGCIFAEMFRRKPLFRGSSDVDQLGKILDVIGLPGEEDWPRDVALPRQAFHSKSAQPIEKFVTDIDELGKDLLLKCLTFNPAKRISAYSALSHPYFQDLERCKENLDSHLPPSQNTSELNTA
Structure (SMILES),tested on,test,system,conditions,measurement,result
COc1cc(-c2cncc3c2CN(C)Cc2cc(N4CCNCC4)ccc2-3)cc(OC)c1OC,"Cytoplasmic tyrosine-protein kinase BMX (BMX, Homo sapiens, UniProt P51813)","enzyme activity, inhibitor",,1 µM,remaining activity,107%
COc1cnc(Nc2cccc(S(N)(=O)=O)c2)nc1N1CCN(c2ccccc2)CC1,"Cyclin-dependent kinase 2 homolog (CRK2, Plasmodium falciparum, UniProt P61075)","binding, competition with immobilised ligand",,1 µM,remaining binding,76%
C1=C/COCc2cc(ccc2OCCN2CCCC2)Nc2nccc(n2)-c2cccc(c2)COC/1,"Cyclin-dependent kinase-like 2 (CDKL2, Homo sapiens, UniProt Q92772)",binding,,0.1 µM,remaining binding,0%
FC(F)(F)Oc1cccc(-c2cnc3ccc(-c4ccncc4)nn23)c1,"Dual specificity testis-specific protein kinase 1 (TESK1, Homo sapiens, UniProt Q15569)","binding, competition with immobilised ligand",,5 µM,remaining binding,54%
CNc1ncc2c(/C=C/C(=O)N3CCC(OC)CC3)nn(Cc3cccc(C(F)(F)F)c3)c2n1,"Cyclin-dependent kinase 6, with cyclin D1 (CDK6, Homo sapiens, UniProt Q00534)","enzyme activity, inhibitor, radiometric",,1 µM,remaining activity,86%
C[C@@H](c1ccc(-n2cnc3c(N)ncnc32)cc1)N1CCc2nn(C)c(Cc3ccccc3)c2C1=O,"High affinity nerve growth factor receptor (NTRK1, Homo sapiens, UniProt P04629)","binding, competition with immobilised ligand",,0.1 µM,remaining binding,6.4%
CN(Cc1ccc(C2(C(F)(F)F)CC2)cc1)Cc1cccc2ccccc12,Trichophyton rubrum,"microbial growth, disc diffusion",ATCC28188,"0.0005 µg/mL, 6 days",inhibition zone,9.5 mm
C=CC(=O)N1CCC(COCC(=O)N2CCN(c3nc(-c4cnc(N)nc4C(F)F)nc(N4CCOC[C@@H]4C)n3)CC2)CC1,"Serine/threonine-protein kinase 32C (STK32C, Homo sapiens, UniProt Q86UX6)","binding, competition with immobilised ligand",,1 µM,remaining binding,100%
CCCCC(=O)Nc1ccc(-c2ccc3ncn(CCC)c(=O)c3c2)cn1,"Serine/threonine-protein kinase RIO2 (RIOK2, Homo sapiens, UniProt Q9BVS4)","binding, competition with immobilised ligand",,0.5 µM,remaining binding,100%
Cc1cc([C@@H](C)Nc2ccccc2C(=O)O)c2nc(N3CCC(F)(F)CC3)c(C#N)c(=O)n2c1,"Glycogen synthase kinase-3 beta (GSK3B, Homo sapiens, UniProt P49841)","binding, competition with immobilised ligand",,1 µM,remaining binding,100%
C[C@]1(O)CCCN(c2nc(Nc3ccc(S(=O)(=O)N[C@H]4CC[C@H](CN5CCN(c6ccc(C7CCC(=O)NC7=O)cc6F)CC5)CC4)cc3Cl)ncc2C(F)(F)F)C1 (stereo partly shown),"Cyclin-dependent kinase 2 (CDK2, Homo sapiens, UniProt P24941)","binding, competition with immobilised ligand",,1 µM,remaining binding,58%
COc1ccc2oc(-c3ccc4nc(N)oc4c3)c/c(=N\c3ccccc3NC(=O)CCN)c2c1,"Cyclin-dependent kinase 1, with cyclin B (CDK1, Homo sapiens, UniProt P06493)",binding,,1 µM,remaining binding,100%
CC(=NNC(=O)c1ccccc1)c1ccc(Nc2nnc(-c3ccc(Cl)cc3)c3ccccc23)cc1,MCF7,"cell growth or viability, MTT",,"1.25 µM, 24 h",viability,50.8%
